Results gathered from unrelated publications.
A part holds a random share of what one study measured.

Study 1
Cell line: HEK-293T
Read-out: pseudovirus infection
Method: FDA-approved drug library screen
Organism: VSV pseudotyped with SARS-CoV-2 spike
Tested at: 10 µM
Time: 16 h
Reference: vehicle-treated
Compound	GFP-positive cells
CCOc1nc2cccc(C(=O)O)c2n1Cc1ccc(-c2ccccc2-c2nc(=O)o[nH]2)cc1	119%
COc1cccc2c1C(=O)c1c(O)c3c(c(O)c1C2=O)C[C@@](O)(C(=O)CO)C[C@@H]3O[C@H]1C[C@H](N)[C@H](O)[C@H](C)O1	90.4%
CCN(CC)C(=O)Nc1ccc(OCC(O)CNC(C)(C)C)c(C(C)=O)c1 (stereo not drawn)	82.2%

Study 2
Target: RING finger protein unkempt homolog, zinc fingers 1-6, GST-SBP tag (UNK, Homo sapiens, UniProt Q9C0B0, residues 30-357)
UniProt Q9C0B0, sequence (30-357, looked up): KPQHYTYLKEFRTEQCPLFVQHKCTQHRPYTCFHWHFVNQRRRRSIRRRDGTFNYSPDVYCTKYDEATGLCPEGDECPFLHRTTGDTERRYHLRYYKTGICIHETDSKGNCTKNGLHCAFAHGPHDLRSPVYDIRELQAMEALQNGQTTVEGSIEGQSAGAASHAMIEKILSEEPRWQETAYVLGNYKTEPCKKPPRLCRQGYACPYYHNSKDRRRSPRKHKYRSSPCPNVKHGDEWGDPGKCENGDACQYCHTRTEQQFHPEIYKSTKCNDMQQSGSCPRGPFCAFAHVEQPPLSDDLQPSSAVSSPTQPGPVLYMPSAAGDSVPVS
Method: RNA Bind-n-Seq
Form: RNA
Sample: in vitro
Tested at: not given
Setting: RNA with constant flanks, ends assumed
Reference: input RNA pool
Reading: higher = stronger binding
Shared flanks, not repeated: GGGAGUUCUACAGUCCGACGAUC … CAACAGAGGAUUGAGCAUCA
Strand	bound/input enrichment
CUGUGUGUGCUGAAUAAAUGGCUUGUAAAGAAGUUUUUCCAAGCUGUAACCCAUGCUGUUAUUACCGUUGCUGCAAAAUGUUCUUCCUGAUAUUGAUUUUAUUUGUUAACUGAAGGUCUC	0.437 ratio
UGUCUCCACUCAGUGACGUGGGAUUUUUUUGUCUUCCUUUUGGCUUUAUUUUUAAACUGCUUCCGAUAUUACUGCUCAGUGUUUGUGAACUUUCCUAGUUCUCUAUGUUGUUAGUGCAGC	0.994 ratio
AUCCAGGCAGCAGACAGCACAGCUGUGAAUGGCAGCAUUACACCCACAGACAAAAAGACCGGAUUUUUGGGCCUUGGCUUAAUGGGAAGUGGCAUCGUCUCCAACUUGCUAAAAAUGGGU	0.116 ratio
UCCCUUCCCCUGGAGCACAACUUUACUUUCUGUGUCUCUGUUUUGCACAAUAAGAAACUCAGCCGGCAAAGGUUGUGUUUUUUUUUUUGGUAAGUUCACUUGCUUUUUAAAAUUUUUAUU	0.227 ratio
GAGAACAUUAGGCUAAAUGAUUUCCGAGUUUCCAGCUAGUCCUAGAGUUCUAUAUUUCUACACCGUUGAAUUAUUUUAUCAUGCUGUUGCUGGGGAAUAUGACUAACCCUUUUGAAGCUA	1.37 ratio

Study 3
Target: Sal-like protein 4, full length isoform A (SALL4, Homo sapiens, UniProt Q9UJQ4, residues 1-1053)
UniProt Q9UJQ4, sequence (whole entry, looked up): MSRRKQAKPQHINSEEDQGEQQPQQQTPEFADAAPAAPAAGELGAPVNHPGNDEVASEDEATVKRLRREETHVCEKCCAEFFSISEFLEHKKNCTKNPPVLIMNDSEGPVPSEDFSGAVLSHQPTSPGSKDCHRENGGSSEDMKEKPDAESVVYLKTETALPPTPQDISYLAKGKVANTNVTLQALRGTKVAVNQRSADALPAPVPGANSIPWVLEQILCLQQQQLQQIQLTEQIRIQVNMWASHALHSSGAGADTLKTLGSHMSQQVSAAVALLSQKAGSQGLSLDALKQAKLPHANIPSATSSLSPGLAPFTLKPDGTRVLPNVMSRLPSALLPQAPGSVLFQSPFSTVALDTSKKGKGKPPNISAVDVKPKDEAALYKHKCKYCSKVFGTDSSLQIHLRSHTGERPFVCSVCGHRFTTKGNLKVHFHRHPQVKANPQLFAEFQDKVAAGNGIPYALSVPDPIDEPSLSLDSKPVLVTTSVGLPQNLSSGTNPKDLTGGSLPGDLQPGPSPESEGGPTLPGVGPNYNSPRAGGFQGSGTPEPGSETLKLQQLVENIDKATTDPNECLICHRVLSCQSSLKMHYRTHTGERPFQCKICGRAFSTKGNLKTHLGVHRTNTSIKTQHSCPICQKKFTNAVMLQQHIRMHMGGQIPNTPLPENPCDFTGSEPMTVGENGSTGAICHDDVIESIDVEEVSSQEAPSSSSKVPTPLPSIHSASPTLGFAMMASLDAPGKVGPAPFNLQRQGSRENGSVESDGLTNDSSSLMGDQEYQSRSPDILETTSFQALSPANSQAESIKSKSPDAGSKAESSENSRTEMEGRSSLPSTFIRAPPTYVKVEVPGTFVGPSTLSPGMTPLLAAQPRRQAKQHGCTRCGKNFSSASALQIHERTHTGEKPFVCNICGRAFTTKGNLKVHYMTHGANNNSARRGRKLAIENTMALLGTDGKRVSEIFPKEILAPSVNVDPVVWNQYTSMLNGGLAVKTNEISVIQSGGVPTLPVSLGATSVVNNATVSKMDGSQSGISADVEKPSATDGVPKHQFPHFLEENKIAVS
Method: universal PBM
Form: double-stranded DNA, one strand shown
Sample: in vitro
Tested at: 600 nM
Setting: 8-mer, flanks averaged, mean of replicates
Reading: higher = stronger binding
Strand	E-score
ACGTTCTC	0.0878
TCCGAAAA	0.0247
CTCCCCGC	-0.143
TAGCTACA	0.157
TTCTAGAA	-0.0428
AGTGCATG	0.0683
ACGTCACA	0.0624
AATATAAC	0.384

Study 4
Target: Replicase polyprotein 1ab, polymerase (rep, Severe acute respiratory syndrome coronavirus 2, UniProt P0DTD1)
Read-out: enzyme activity
Mode: inhibitor
Tested at: 20 µM
SMILES	inhibition [%]
CO/N=C1\C[C@]2(C[C@@H]3C[C@@H](C/C=C(\C)C[C@@H](C)/C=C/C=C4\CO[C@@H]5[C@H](O)C(C)=C[C@@H](C(=O)O3)[C@]45O)O2)O[C@H](/C(C)=C/C(C)C)[C@H]1C	-11
CCCCCC(=O)O[C@]1(C(C)=O)CC[C@H]2[C@@H]3CCC4=CC(=O)CC[C@]4(C)[C@H]3CC[C@@]21C	16.1
C#C[C@]1(O)CC[C@H]2[C@@H]3CCC4=CC(=O)CC[C@@H]4[C@H]3C(=C)C[C@@]21CC	-2.14
COc1cc(OC)c(NC(=O)Nc2cc(C)on2)cc1Cl	1.27
C[C@H]1C[C@H]2[C@@H]3CCC4=CC(=O)C=C[C@]4(C)[C@H]3C(=O)C[C@]2(C)[C@@]1(O)C(=O)CO	-3.86
CN[C@H](C(=O)N[C@H](C(=O)N(C)[C@H](/C=C(\C)C(=O)O)C(C)C)C(C)(C)C)C(C)(C)c1ccccc1	-9.01
CC(=O)NNC(=O)N1Cc2ccccc2Oc2ccc(Cl)cc21	-8.2
CCOc1nc2c(N)ncnc2n1CC	-9.28
Cc1cc(C(=O)NNCc2ccccc2)no1	-1.23
O=c1ccc2ccc(OCCCCN3CCN(c4cccc5sccc45)CC3)cc2[nH]1	-2.92
CC1c2ccccc2CN1CC1=NCCN1 (stereo not drawn)	10.4
Cc1cn2c(N)c(Cl)cc(C(=O)NCC3CCN(CC(C)C)CC3)c2n1	0.32
CN(C)CCC=C1c2ccccc2C=Cc2ccccc21	-5.48
CC1CC(OC(=O)C(O)c2ccccc2)CC(C)(C)C1 (stereo not drawn)	-8.62
CN[C@@H](C)C(=O)N[C@H]1CCCC[C@H]2CC[C@@H](C(=O)N[C@@H](c3ccccc3)c3cn(CCCCc4ccc(CCCCn5cc([C@@H](NC(=O)[C@@H]6CC[C@@H]7CCCC[C@H](NC(=O)[C@H](C)NC)C(=O)N76)c6ccccc6)nn5)cc4)nn3)N2C1=O	-9.13
CC(=O)N1N=C(c2ccc(N)cc2)c2cc3c(cc2C[C@H]1C)OCO3	3
O=C(O)CNC(=O)c1ccccc1	-6.07
Cc1csc(S(=O)(=O)N(CC(C)C)c2cc3c(cc2OCc2ccc(C(=O)O)cc2)CCC3)n1	4.61
CC[C@]1(O)C[C@@H]2CN(CCc3c([nH]c4ccccc34)[C@@](C(=O)OC)(c3cc4c(cc3OC)N(C)[C@H]3[C@@](O)(C(N)=O)[C@H](O)[C@]5(CC)C=CCN6CC[C@]43[C@@H]65)C2)C1	1.61
Cc1ccc2cc(-c3c(C)ccc(C(=O)c4c(-c5ccccc5)n(C)n(-c5ccccc5)c4=O)c3N)ccc2n1	-5.99
COc1cc2ncnc(Nc3cccc(Cl)c3F)c2cc1OC(=O)N1CCN(C)C[C@H]1C	-5.88
COc1cc(-c2cc(-c3cccc(O)c3)cnc2N)cc(OC)c1OC	-0.03
NC(N)=NCCC[C@@H](N)C(=O)N[C@@H](CCCN=C(N)N)C(=O)N1CCC[C@H]1C(=O)N1C[C@H](O)C[C@H]1C(=O)NCC(=O)N[C@@H](Cc1cccs1)C(=O)N[C@@H](CO)C(=O)N1Cc2ccccc2C[C@@H]1C(=O)N1[C@H](C(=O)N[C@@H](CCCN=C(N)N)C(=O)O)C[C@@H]2CCCC[C@@H]21	5.09
Cc1cc(Nc2ncc(Cl)c(Nc3ccccc3S(=O)(=O)C(C)C)n2)c(OC(C)C)cc1C1CCNCC1	10.6
Cc1cc(NC(=O)NCCN2CCC(O)(Cc3ccccc3)CC2)c2ccccc2n1	-8.15

Study 5
Target: Interferon regulatory factor 3, full length, phosphomimetic (IRF3, Homo sapiens, UniProt Q14653, residues 1-427, S386D/S396D/S398D/S402D/T404D/S405D)
Method: protein-binding microarray
Form: double-stranded DNA, one strand shown
Sample: in vitro
Tested at: 2540 nM top
Setting: 60-bp whole probe
Together with: salmon DNA 0.4 mg/ml
Reference: random background probes
Reading: higher = stronger binding
Shared flanks, not repeated: GCCTAGCAC … GTCTTGATTCGCTTGACGCTGCTG
Target sequence (chain): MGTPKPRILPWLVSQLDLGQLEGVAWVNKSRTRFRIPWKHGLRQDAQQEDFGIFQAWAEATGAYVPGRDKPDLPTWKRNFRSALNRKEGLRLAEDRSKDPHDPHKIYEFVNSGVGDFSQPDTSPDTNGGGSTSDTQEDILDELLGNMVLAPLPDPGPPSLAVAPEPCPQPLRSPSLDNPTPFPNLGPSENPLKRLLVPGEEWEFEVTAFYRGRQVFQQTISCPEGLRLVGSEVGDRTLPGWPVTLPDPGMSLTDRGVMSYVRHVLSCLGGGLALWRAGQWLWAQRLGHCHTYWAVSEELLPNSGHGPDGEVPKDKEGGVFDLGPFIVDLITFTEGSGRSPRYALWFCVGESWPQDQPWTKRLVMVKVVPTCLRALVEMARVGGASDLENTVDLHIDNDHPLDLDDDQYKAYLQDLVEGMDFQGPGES
Strand	fitted relative affinity [z-score]
GACGGACTCGGGTATCGGGACGTGCTA	-0.151
CTGCGGTGAGTGCGTTATCGGTGCTAG	-0.265
TTAGATATCGGGACTGGATTGGTGCTA	-0.0651
AATTACATTTCATAGAGTGTGTGCTAG	1.28
TCATGTCTGGGTCTTGGACTGTGCTAG	-0.509
GACGGATTGCTTATCCTGACGTGCTAG	0.235
TTAGATTTCAGTCTCGATGAGTGCTAG	2.27
AAGCCAGGACGAGCTCGCCTGTGCTAG	-1.12

Study 6
Target: Replicase polyprotein 1ab, main protease (rep, Severe acute respiratory syndrome coronavirus 2, UniProt P0DTD1)
Read-out: enzyme activity
Mode: inhibitor
Tested at: 20 µM
Setting: hit confirmation, no DTT
Compound	inhibition [%]
CC(C)c1cc(CNc2nc(Nc3cc(C4CC4)[nH]n3)cc(N3CCN(C)CC3)n2)on1	99.2
CC(C)Nc1cccnc1N1CCN(C(=O)c2cc3cc(NS(C)(=O)=O)ccc3[nH]2)CC1.CS(=O)(=O)O	86.7
COc1ccc2[nH]c([S@@+]([O-])Cc3ncc(C)c(OC)c3C)nc2c1	99.1
C[n+]1c2cc(N)ccc2cc2ccc(N)cc21	82.1
COc1cccc(C(=O)CCN[C@@H](C)[C@H](O)c2ccccc2)c1	90.5

For quick reference, copied from above (study 4):
SMILES	inhibition [%]
Cc1csc(S(=O)(=O)N(CC(C)C)c2cc3c(cc2OCc2ccc(C(=O)O)cc2)CCC3)n1	4.61
CC[C@]1(O)C[C@@H]2CN(CCc3c([nH]c4ccccc34)[C@@](C(=O)OC)(c3cc4c(cc3OC)N(C)[C@H]3[C@@](O)(C(N)=O)[C@H](O)[C@]5(CC)C=CCN6CC[C@]43[C@@H]65)C2)C1	1.61
Cc1ccc2cc(-c3c(C)ccc(C(=O)c4c(-c5ccccc5)n(C)n(-c5ccccc5)c4=O)c3N)ccc2n1	-5.99
COc1cc2ncnc(Nc3cccc(Cl)c3F)c2cc1OC(=O)N1CCN(C)C[C@H]1C	-5.88
COc1cc(-c2cc(-c3cccc(O)c3)cnc2N)cc(OC)c1OC	-0.03
NC(N)=NCCC[C@@H](N)C(=O)N[C@@H](CCCN=C(N)N)C(=O)N1CCC[C@H]1C(=O)N1C[C@H](O)C[C@H]1C(=O)NCC(=O)N[C@@H](Cc1cccs1)C(=O)N[C@@H](CO)C(=O)N1Cc2ccccc2C[C@@H]1C(=O)N1[C@H](C(=O)N[C@@H](CCCN=C(N)N)C(=O)O)C[C@@H]2CCCC[C@@H]21	5.09
Cc1cc(Nc2ncc(Cl)c(Nc3ccccc3S(=O)(=O)C(C)C)n2)c(OC(C)C)cc1C1CCNCC1	10.6
